Measurements of several laboratories.
Values joined by “and” are separate records of one study, mostly repeats; a detail may differ.
PRKCB isoform beta-II: Protein kinase C beta type, isoform beta-II (PRKCB, Homo sapiens, UniProt P05771)
PRKCB isoform beta-I: Protein kinase C beta type, isoform beta-I (PRKCB, Homo sapiens, UniProt P05771)

Compound	target	assay	conditions	scale	measurement	result
O=c1c(-c2ccc(Cl)c(CN3CCOCC3)c2)coc2cc(O)ccc12	PRKCB isoform beta-II	enzyme activity, inhibitor, KinaseProfiler	1 µM, added: ATP at Km		remaining activity	99%
COc1c(OCCCN2CCOCC2)ccc2c1N=C(NC(=O)c1cnc(N)nc1)N1CCN=C21	PRKCB isoform beta-II	kinase activity, inhibitor	1 µM	baseline: untreated control	remaining activity	114%
NC(=O)[C@@H](O)C[C@H]1CCc2sc3ncnc(O[C@H]4CC[C@H](N5CCOCC5)CC4)c3c21	PRKCB isoform beta-I	radioisotope kinase	10 µM		inhibition	8%
COCC12C(=O)NC3C4(C(OC)CC1O)C1CC5(O)C(OC)C(O)C(OC(C)=O)(C1C5OC(=O)c1ccccc1)C3(O)C(OC)C24 (stereo not shown)	PRKCB isoform beta-II	kinase activity, inhibitor, ProQinase kinase profiling	25 µM	baseline: control	remaining activity	91% and 96%
CN1CCN(Cc2ccc(-c3ccc(CO[C@H]4CCC[C@@H]4NC(=O)c4cc(-c5cnn(C)c5)cnc4N)cc3)cc2)CC1	PRKCB isoform beta-II	SelectScreen kinase profiling	0.1 µM		inhibition	10%
O=C=[N][Ru-4]123([n]4c5ccc(O)cc5c5c6c(c7cc(F)c[n+]1c7c54)C(=O)NC6=O)[S+]1CC[S+]2CC[S+]3CC1 (stereo not shown)	PRKCB isoform beta-II	enzyme activity	100 nM, human enzyme, added: 10 µM ATP	baseline: untreated	remaining activity	82%
CNC(=O)C[C@H](Cc1ccc(C#N)cc1)NC(=O)c1cc(-c2ccc(CN[C@H](C)c3ccc(C)cc3)o2)ccc1Cl	PRKCB isoform beta-II	enzyme activity, KinaseProfiler panel	1 µM		remaining activity	107%
CN1CC[C@@H](COc2cnc(C#N)cc2-c2ccn3nc(NC(=O)C4CC4)cc3c2)C1	Protein kinase C beta type, beta-I isoform (PRKCB, Homo sapiens, UniProt P05771)	kinase activity	1 µM		inhibition	5%
COc1ccc(NC(=O)Nc2ccc3c(c2)C(=O)N(C(C)CO)CC(C)C(CN(C)Cc2ccc4c(c2)OCO4)O3)cc1 (stereo not shown)	PRKCB isoform beta-I	kinase activity, KinaseProfiler	0.03 µM, species human	baseline: control	remaining activity	103%
C=CC(=O)Nc1cccc(-c2cnc3[nH]cc(C(=O)NC(C)(C)C)c3n2)c1	PRKCB isoform beta-I	enzyme activity, inhibitor	0.1 µM		inhibition	-1%
C=CC(=O)N1Cc2nc(-c3cc(-c4cc(Cl)cnc4Cl)c(F)cc3F)n(-c3ccncn3)c2C1	PRKCB (Homo sapiens, UniProt P05771)	cell-free assay	1 µM		inhibition	1.2%
CCn1cc(C(=O)O)c(=O)c2c(N)c(F)c(NC3CCCCC3)cc21	PRKCB isoform beta-I	kinase activity	0.1 µM, added: ATP at Km		inhibition	5.6%
NC(=O)C[C@H]1CCc2sc3ncnc(O[C@H]4CC[C@H](N5CCOCC5)CC4)c3c21	PRKCB isoform beta-II	radioisotope kinase	10 µM		inhibition	9%
Cc1cccc(O[C@H]2CCC[C@@H](C(C)CNCc3ccncc3)C2)c1 (relative stereo)	PRKCB isoform beta-I	kinome profiling	1 µM		inhibition	3%
Nc1ncc(-c2cc(-c3cnn(CC(F)(F)F)c3)ncc2F)nc1C(=O)NC1CNCC(F)C1 (stereo not shown)	PRKCB isoform beta-I	enzyme activity	1 µM	baseline: DMSO control	remaining activity	99.6%
O=C(Cc1ccc(OCc2ccccc2)cc1)NC1(C(=O)O)CCN(C(=O)c2ccc(-c3cccc(Cl)c3)cc2)CC1	PRKCB isoform beta-I	kinase activity, inhibitor	10 µM, added: ATP at Km		remaining activity	107%

Repeated from above:
Compound	target	assay	conditions	scale	measurement	result
O=C(Cc1ccc(OCc2ccccc2)cc1)NC1(C(=O)O)CCN(C(=O)c2ccc(-c3cccc(Cl)c3)cc2)CC1	PRKCB isoform beta-I	kinase activity, inhibitor	10 µM, added: ATP at Km		remaining activity	107%
